Assay results collected from several papers.
Every numbered part comes from another study and shows a few of its results, in no order.
Chain of UniProt P23443 (whole entry, looked up): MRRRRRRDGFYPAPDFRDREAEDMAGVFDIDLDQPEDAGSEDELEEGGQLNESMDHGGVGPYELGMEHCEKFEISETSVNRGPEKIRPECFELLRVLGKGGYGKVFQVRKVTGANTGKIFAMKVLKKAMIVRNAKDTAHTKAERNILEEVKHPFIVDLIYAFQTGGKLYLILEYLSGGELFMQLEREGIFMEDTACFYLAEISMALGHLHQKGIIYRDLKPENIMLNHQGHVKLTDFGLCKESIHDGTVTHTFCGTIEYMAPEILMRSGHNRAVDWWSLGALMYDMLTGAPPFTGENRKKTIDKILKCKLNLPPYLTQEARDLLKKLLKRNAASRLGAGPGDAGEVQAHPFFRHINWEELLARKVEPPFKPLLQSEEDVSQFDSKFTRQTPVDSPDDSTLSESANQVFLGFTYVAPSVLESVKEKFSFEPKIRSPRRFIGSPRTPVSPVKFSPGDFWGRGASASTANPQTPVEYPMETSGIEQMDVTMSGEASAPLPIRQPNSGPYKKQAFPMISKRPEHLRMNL
Chain of UniProt Q15418 (whole entry, looked up): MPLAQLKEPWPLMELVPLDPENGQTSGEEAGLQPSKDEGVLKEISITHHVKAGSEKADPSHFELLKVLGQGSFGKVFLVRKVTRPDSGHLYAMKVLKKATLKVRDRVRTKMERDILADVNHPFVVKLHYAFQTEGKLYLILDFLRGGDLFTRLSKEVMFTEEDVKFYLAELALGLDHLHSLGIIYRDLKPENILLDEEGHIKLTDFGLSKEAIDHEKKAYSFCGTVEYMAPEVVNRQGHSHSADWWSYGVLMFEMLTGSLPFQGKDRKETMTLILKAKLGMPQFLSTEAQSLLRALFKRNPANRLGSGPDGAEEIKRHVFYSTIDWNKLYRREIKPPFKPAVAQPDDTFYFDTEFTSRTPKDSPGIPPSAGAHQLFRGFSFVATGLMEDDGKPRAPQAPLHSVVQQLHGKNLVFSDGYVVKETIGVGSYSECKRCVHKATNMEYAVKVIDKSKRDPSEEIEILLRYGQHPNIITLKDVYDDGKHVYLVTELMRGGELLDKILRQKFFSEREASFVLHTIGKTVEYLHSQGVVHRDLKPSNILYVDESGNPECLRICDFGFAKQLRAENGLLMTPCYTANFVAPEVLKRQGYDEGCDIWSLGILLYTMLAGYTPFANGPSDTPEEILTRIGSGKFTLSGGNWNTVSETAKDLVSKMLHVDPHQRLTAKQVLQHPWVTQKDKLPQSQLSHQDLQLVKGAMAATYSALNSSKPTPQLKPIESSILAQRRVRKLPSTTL
Chain of UniProt P27448 (whole entry, looked up): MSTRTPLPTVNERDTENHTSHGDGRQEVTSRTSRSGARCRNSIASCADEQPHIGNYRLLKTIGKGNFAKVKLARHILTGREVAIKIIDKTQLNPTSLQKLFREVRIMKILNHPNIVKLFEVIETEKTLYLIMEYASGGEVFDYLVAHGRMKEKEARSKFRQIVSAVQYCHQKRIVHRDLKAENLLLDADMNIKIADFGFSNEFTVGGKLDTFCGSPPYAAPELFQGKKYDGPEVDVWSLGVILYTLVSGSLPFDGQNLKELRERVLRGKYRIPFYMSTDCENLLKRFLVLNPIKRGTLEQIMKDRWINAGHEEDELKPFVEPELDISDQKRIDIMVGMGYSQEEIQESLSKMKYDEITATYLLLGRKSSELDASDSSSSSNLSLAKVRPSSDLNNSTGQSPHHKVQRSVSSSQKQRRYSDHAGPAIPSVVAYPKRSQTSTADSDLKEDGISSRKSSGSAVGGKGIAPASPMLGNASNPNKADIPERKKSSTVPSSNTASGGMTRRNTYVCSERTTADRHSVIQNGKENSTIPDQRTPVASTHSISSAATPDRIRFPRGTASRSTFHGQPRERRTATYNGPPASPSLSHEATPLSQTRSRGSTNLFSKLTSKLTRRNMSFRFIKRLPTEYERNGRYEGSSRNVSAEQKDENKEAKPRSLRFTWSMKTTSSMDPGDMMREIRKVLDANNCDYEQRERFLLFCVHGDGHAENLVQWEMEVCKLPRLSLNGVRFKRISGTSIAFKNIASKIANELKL
Chain of UniProt Q8N4C8 (whole entry, looked up): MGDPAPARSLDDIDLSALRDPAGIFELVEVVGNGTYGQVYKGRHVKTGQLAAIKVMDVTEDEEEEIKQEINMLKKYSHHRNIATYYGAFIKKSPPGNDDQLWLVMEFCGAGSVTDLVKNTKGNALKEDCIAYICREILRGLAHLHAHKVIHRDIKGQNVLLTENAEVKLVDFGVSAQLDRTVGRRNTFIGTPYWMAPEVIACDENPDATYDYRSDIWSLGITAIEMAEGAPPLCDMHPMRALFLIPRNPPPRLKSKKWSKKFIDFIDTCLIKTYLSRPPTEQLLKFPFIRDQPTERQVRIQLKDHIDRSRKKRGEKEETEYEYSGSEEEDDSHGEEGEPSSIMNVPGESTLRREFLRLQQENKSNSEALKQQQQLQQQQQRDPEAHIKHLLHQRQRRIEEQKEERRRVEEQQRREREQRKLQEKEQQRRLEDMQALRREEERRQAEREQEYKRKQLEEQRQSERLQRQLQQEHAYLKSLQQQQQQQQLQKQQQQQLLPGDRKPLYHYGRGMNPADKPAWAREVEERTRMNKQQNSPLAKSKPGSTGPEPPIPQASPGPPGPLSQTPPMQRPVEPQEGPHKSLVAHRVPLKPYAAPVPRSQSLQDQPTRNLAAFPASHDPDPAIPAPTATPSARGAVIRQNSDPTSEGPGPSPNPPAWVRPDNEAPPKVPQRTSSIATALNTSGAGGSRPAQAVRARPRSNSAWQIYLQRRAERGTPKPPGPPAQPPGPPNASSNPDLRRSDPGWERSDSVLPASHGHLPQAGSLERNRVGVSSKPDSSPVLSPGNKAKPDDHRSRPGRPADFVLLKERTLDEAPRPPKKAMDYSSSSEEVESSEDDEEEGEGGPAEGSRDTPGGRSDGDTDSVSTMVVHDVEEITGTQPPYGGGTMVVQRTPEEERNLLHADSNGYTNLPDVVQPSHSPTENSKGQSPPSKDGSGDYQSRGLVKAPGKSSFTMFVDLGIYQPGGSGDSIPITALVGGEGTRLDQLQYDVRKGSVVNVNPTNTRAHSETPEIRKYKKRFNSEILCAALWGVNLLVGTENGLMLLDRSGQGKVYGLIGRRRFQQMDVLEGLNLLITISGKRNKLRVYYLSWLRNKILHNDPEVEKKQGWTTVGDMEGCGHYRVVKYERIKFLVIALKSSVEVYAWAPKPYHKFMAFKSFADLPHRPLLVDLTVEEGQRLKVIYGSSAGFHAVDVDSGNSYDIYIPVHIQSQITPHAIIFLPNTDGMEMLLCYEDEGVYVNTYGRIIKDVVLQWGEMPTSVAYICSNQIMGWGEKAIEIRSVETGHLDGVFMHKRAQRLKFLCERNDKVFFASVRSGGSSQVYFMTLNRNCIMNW

Set 1 — read-out: enzyme activity; mode: inhibitor; concentration: 0.5 µM; reference: control
Target: Ephrin type-A receptor 4 (EPHA4, Homo sapiens, UniProt P54764)
Chain of UniProt P54764 (whole entry, looked up): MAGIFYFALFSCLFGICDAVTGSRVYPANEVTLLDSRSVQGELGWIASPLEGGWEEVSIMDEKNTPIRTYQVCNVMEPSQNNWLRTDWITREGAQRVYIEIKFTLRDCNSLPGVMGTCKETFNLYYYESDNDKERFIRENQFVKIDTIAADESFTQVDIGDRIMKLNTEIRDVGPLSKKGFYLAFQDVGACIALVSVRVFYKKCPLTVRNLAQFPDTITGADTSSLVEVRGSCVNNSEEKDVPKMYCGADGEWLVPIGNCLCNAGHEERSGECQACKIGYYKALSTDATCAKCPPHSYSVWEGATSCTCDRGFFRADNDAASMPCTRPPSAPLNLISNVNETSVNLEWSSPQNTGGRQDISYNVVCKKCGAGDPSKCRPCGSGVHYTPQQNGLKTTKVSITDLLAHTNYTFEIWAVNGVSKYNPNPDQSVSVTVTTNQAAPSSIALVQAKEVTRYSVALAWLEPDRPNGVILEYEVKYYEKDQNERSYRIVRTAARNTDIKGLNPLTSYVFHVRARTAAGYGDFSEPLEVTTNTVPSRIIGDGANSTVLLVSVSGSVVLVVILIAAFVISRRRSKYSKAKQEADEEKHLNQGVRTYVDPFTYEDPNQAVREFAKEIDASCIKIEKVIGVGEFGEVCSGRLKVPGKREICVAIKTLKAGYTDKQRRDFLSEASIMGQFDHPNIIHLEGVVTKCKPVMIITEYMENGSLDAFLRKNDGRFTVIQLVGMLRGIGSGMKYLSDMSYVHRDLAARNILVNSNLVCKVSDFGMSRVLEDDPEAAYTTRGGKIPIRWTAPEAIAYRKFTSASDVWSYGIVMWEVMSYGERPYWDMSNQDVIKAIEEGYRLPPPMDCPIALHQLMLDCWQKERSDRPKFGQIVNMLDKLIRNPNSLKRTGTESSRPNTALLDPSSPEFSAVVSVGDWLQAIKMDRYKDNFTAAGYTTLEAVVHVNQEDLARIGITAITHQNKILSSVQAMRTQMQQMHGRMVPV
| SMILES | remaining activity [%] |
| --- | --- |
| C[C@@H]1CCN(C(=O)CC#N)C[C@@H]1N(C)c1ncnc2[nH]ccc12 | 99.1 |
| CCN(CC)CCNC(=O)c1c(C)[nH]c(/C=C2\C(=O)Nc3ccc(F)cc32)c1C | 84.5 |
| CN([C@@H](Cc1ccc(OS(=O)(=O)c2cccc3cnccc23)cc1)C(=O)N1CCN(c2ccccc2)CC1)S(=O)(=O)c1cccc2cnccc12 | 95.4 |
| O=C1c2ccccc2-c2n[nH]c3cccc1c23 | 107 |
| c1ccc(-c2cnc(Nc3ccc(OCCN4CCCC4)cc3)s2)cc1 | 101 |
| Ic1cccc(CSc2nnc(-c3ccncc3)o2)c1 | 105 |
| Cc1cc2ncc(-c3ccccc3)nc2cc1C | 95.4 |
| N#Cc1c(NC(=O)c2cccc3ccccc23)sc2c1CCCC2 | 99 |
| CN(C)C[C@H]1CCn2c(c(C3=C(c4cn(C)c5ccccc45)C(=O)NC3=O)c3ccccc32)C1 | 103 |
| Cc1nc2cc3nc(-c4cccs4)cnc3cc2n1C | 93.1 |
| O=C(Nc1cccc(Nc2nccc(Nc3cccc(C(F)(F)F)c3)n2)c1)C1CC1 | 81 |
| COc1cc2c(cc1OC)-c1[nH]nc(Nc3cccc(F)c3)c1C2 | 93.3 |
| Cn1nc2c3c(cccc31)C(=O)c1ccccc1-2 | 104 |
| N#C/C(=C\c1ccc(O)c(O)c1)C(=O)NCc1ccccc1 | 99.5 |
| CCOc1nc(NC(=O)Cc2cc(OC)ccc2OC)cc(N)c1C#N | 99.1 |
| O=C1C(Cl)=C(N2C(=O)CCC2=O)C(=O)c2ccccc21 | 101 |
| COc1cc2ncnc(Nc3cccc(Cl)c3)c2cc1OC | 81.7 |
| O=c1cc(-c2cccc3c2Sc2ccccc2S3)oc(N2CCOCC2)c1 | 101 |
| CCN(CC)C(=O)c1ccc(Nc2nc(OCC3CCCCC3)c3[nH]cnc3n2)cc1 | 86.7 |
| c1ccc(-c2[nH]ncc2-c2ccnc3ccccc23)nc1 | 98 |
| Nc1cccc(-c2cc3c(Oc4cccc(O)c4)ncnc3[nH]2)c1 | 48.3 |
| O=C(NC(NC(=S)Nc1ccc(F)c([N+](=O)[O-])c1)C(Cl)(Cl)Cl)C(c1ccccc1)c1ccccc1 (stereo not shown) | 101 |
| COc1cc2ncnc(Nc3ccc(O)c(Br)c3)c2cc1OC | 83.7 |
| CCN(CC)CCNC(=O)c1c(C)[nH]c(/C=C2\C(=O)Nc3ccc(Cl)cc32)c1C | 88 |
| Cc1cn(-c2cc(NC(=O)c3ccc(C)c(Nc4nccc(-c5cccnc5)n4)c3)cc(C(F)(F)F)c2)cn1 | 12 |

Set 2 — host: human; matrix: microsomes or S9; concentration: 2 µM; time: 0.5 h
| SMILES | remaining compound [%] |
| --- | --- |
| Cc1csc(-c2noc(Cc3csc(C(C)C)n3)n2)n1 | 44.2 |
| Cc1cc(N2C(=O)CC(SCCN)C2=O)no1 (stereo not shown) | 76.6 |
| CCOc1cc(=O)n2c(c1C(=O)NC1CCc3ccccc31)CCCCC2 (stereo not shown) | 24.4 |
| CCc1nn(CC(=O)N2CCC(N3CCCCC3)CC2)c(=O)c2cc3sccc3n12 | 89.5 |
| Nc1c2c(nc3ccccc13)N(C1CCCCC1)CC2 | 66.1 |
| Cc1nc(OCCN2CCOCC2)c(C#N)c2c1COC(C)(C)C2 | > 100 |
| Cn1cc(-c2cccc(CNc3nnc(C(C)(C)C)o3)c2)cn1 | 38.8 |

Set 3 — read-out: cell-free assay; method: competition with immobilised ligand; concentration: 1 µM
SMILES: Cc1nccc(COC(=O)N2C[C@@H]3[C@@H](CNC(=O)c4ccc5[nH]nnc5c4)[C@@H]3C2)n1
| target | remaining binding [%] |
| --- | --- |
| SIK3 (Homo sapiens, UniProt Q9Y2K2) | 100 |
| MAPK10 (Homo sapiens, UniProt P53779) | 100 |
| Ribosomal protein S6 kinase alpha-1, N-terminal kinase domain (RPS6KA1, Homo sapiens, UniProt Q15418) | 98 |
| ROS1 (Homo sapiens, UniProt P08922) | 100 |
| RPS6KB1 (Homo sapiens, UniProt P23443) | 84 |
| MARK3 (Homo sapiens, UniProt P27448) | 95 |
| MINK1 (Homo sapiens, UniProt Q8N4C8) | 100 |
| NIM1K (Homo sapiens, UniProt Q8IY84) | 87 |
| COQ8B (Homo sapiens, UniProt Q96D53) | 100 |
| CDK8 (Homo sapiens, UniProt P49336) | 75 |
| Tyrosine-protein kinase ABL1, phosphorylated (ABL1, Homo sapiens, UniProt P00519, F317L) | 90 |
| LCK (Homo sapiens, UniProt P06239) | 94 |

Set 4 — read-out: enzyme activity; mode: inhibitor; concentration: 10 µM
Target: Calcium/calmodulin-dependent protein kinase type II subunit alpha (CAMK2A, Homo sapiens, UniProt Q9UQM7)
Chain of UniProt Q9UQM7 (whole entry, looked up): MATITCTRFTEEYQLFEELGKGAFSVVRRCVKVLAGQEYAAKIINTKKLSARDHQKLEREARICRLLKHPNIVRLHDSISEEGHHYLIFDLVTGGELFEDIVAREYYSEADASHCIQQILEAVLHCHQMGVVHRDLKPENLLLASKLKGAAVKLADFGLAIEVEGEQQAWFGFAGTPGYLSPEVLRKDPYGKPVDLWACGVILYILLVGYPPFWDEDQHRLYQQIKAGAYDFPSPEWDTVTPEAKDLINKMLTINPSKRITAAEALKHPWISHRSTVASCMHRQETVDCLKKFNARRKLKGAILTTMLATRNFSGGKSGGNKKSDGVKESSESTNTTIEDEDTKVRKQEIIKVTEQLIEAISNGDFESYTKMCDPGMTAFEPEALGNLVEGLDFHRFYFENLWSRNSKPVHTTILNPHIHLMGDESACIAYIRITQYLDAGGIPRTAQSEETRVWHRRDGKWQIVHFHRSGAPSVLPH
| SMILES | inhibition |
| --- | --- |
| Cc1cccc(C)c1NC(=O)c1cc(S(N)(=O)=O)c(Cl)cc1O | -14% |
| C[C@@H]1O[C@@H](c2c(O)c([C@@H]3O[C@H](CO)[C@@H](O)[C@H](O)[C@H]3O)c3oc(-c4ccc(O)cc4)cc(=O)c3c2O)[C@H](O)[C@H](O)[C@H]1O | 16% |
| OCc1ccccc1O[C@@H]1O[C@H](CO)[C@@H](O)[C@H](O)[C@H]1O | -20% |
| C[C@@H]1CN(C(=O)c2ccc(NC(=O)c3cc(O[C@H](C)c4c(Cl)ccc(F)c4Cl)c(N)nn3)cc2)C[C@H](C)N1 | 10% |
| CC(C)=CCOc1c2ccoc2cc2oc(=O)ccc12 | -16% |
| COc1cc(C(C)=O)ccc1O | -11% |
| C[C@]12CC[C@@H]3c4ccc(O)cc4CC[C@H]3[C@@H]1C[C@@H](O)[C@@H]2O | -12% |
| C[C@H]1COC2=C1C(=O)C(=O)c1c2ccc2c1CCCC2(C)C | 23% |
| COc1c2c(cc3oc(C)cc(=O)c13)OC(C(C)(C)O[C@@H]1O[C@H](CO)[C@@H](O)[C@H](O)[C@H]1O)C2 (stereo partly shown) | 36% |
| NCCS | 14% |
| CC/C=C\CC1=C(C)CCC1=O | -7% |

A few entries again (set 4):
| SMILES | inhibition |
| --- | --- |
| Cc1cccc(C)c1NC(=O)c1cc(S(N)(=O)=O)c(Cl)cc1O | -14% |
| CC/C=C\CC1=C(C)CCC1=O | -7% |
| C[C@@H]1CN(C(=O)c2ccc(NC(=O)c3cc(O[C@H](C)c4c(Cl)ccc(F)c4Cl)c(N)nn3)cc2)C[C@H](C)N1 | 10% |
| C[C@H]1COC2=C1C(=O)C(=O)c1c2ccc2c1CCCC2(C)C | 23% |
| C[C@]12CC[C@@H]3c4ccc(O)cc4CC[C@H]3[C@@H]1C[C@@H](O)[C@@H]2O | -12% |
| CC(C)=CCOc1c2ccoc2cc2oc(=O)ccc12 | -16% |
| C[C@@H]1O[C@@H](c2c(O)c([C@@H]3O[C@H](CO)[C@@H](O)[C@H](O)[C@H]3O)c3oc(-c4ccc(O)cc4)cc(=O)c3c2O)[C@H](O)[C@H](O)[C@H]1O | 16% |
